# Results of several laboratories.
# Lines come from different studies, so protocols differ.
# Target: Mitogen-activated protein kinase kinase kinase 9 (MAP3K9, Homo sapiens, UniProt P80192)
assay,system,conditions,how to read,endpoint,result,Structure (SMILES)
"binding, competition with immobilised ligand",,3 µM,,remaining binding,100%,COc1c(Cl)cccc1Nc1c(-c2ccncc2C#C[C@@]2(C)CCCN2C(=O)/C=C/CN(C)C)[nH]c2c1C(=O)NCC2
"kinase activity, KinaseProfiler",,"0.03 µM, species human",relative to: control,remaining activity,92%,COc1ccc(NC(=O)Nc2ccc3c(c2)C(=O)N(C(C)CO)CC(C)C(CN(C)Cc2ccc4c(c2)OCO4)O3)cc1 (stereo not shown)
"enzyme activity, inhibitor",,10 µM,,activity vs control,98%,O=C(Cc1ccc(OCc2ccccc2)cc1)NC1(C(=O)O)CCN(C(=O)c2ccc(-c3cccc(Cl)c3)cc2)CC1
"inhibitor, KiNativ profiling",biochemical,2 µM,,inhibition,22.9%,C=CC(=O)Nc1cc(-c2nn(C3CCN(CCNC(=O)[C@H](C)CCC45CC6CC(CC(C6)C4)C5)CC3)c3ncnc(N)c23)ccc1Oc1ccccc1
KinomeScan,,0.1 µM,relative to: untreated,remaining binding,99%,CNC1C[S+]2CC[S+]3CC[S+](C1)[Ru-4]321([N]=C=S)[n]2c3ccc(OC)cc3c3c4c(c5cc(F)c[n+]1c5c32)C(=O)NC4=O (stereo not shown)
"cell-free assay, competition with immobilised ligand",,0.5 µM,,remaining binding,40%,CN1CCN(Cc2ccc(NC(=O)c3cccc(C#Cc4cnc(N)c5ncccc45)c3)cc2C(F)(F)F)CC1
"kinase activity, inhibitor",,1 µM,relative to: untreated control,remaining activity,82%,COc1c(OCCCN2CCOCC2)ccc2c1N=C(NC(=O)c1cnc(N)nc1)N1CCN=C21
"kinase activity, radiometric",,10 µM,,remaining activity,96%,O=C(O)CCC(=O)c1cccc(NS(=O)(=O)c2c[nH]c3ncccc23)c1
"binding, competition with immobilised ligand",,1 µM,,remaining binding,100%,Nc1ncc2c(n1)-c1c([nH]c3ccc(C4=CCOCC4)cc13)CCC2
"binding, competition with immobilised ligand",,10 µM,,remaining binding,89%,CNS(=O)(=O)Nc1nccc(Cc2c(C)c3ccc(Oc4ncccc4F)cc3oc2=O)c1F
"cell-free assay, inhibitor",,1 µM,,inhibition,11.4%,C=CC(=O)N1Cc2nc(-c3cc(-c4cc(Cl)cnc4Cl)c(F)cc3F)n(-c3ccncn3)c2C1
"cell-free assay, competition with immobilised ligand",,1 µM,,remaining binding,100%,Cc1ccc(-c2c(/C=C(\C#N)C(=O)NC(C)C)n(CCCO)c3ncnc(N)c23)cc1
KINOMEscan,,1 µM,relative to: DMSO control,remaining binding,100%,C=CC(=O)N1CCc2ccc(-n3c(=O)ccc4cnc5ccc(-c6cnn(C)c6)cc5c43)cc21
"probe labelling, inhibitor, KiNativ chemoproteomics",MOLT-4,1 µM,,inhibition,52.5%,CS(=O)(=O)Nc1cccc(-c2csc3cnc(Nc4ccc(N5CCN(CCCCCOc6cccc7c6C(=O)N(C6CCC(=O)NC6=O)C7=O)CC5)cc4)nc23)c1 (stereo not shown)
"enzyme activity, inhibitor",,10 µM,,inhibition,13%,NC(=O)[C@@H](O)C[C@H]1CCc2sc3ncnc(O[C@H]4CC[C@H](N5CCOCC5)CC4)c3c21
"enzyme activity, inhibitor",,0.1 µM,,inhibition,-8%,CN1CCN(Cc2ccc(-c3ccc(CO[C@H]4CCC[C@@H]4NC(=O)c4cc(-c5cnn(C)c5)cnc4N)cc3)cc2)CC1

# Excerpt of the above:
assay,system,conditions,how to read,endpoint,result,Structure (SMILES)
"binding, competition with immobilised ligand",,1 µM,,remaining binding,100%,Nc1ncc2c(n1)-c1c([nH]c3ccc(C4=CCOCC4)cc13)CCC2
